# Experimental data from different studies.
# Lines come from different studies, so protocols differ. ± gives the spread as reported.
SMILES,test,system,conditions,how to read,quantity,value
CCOc1c([C@H](C)n2nc(C)c3c(N)ncnc32)cc(Cl)c(F)c1[C@@H]1CNC(=O)C1,,"human patients, indolent lymphoma, plasma","oral, 20 mg, day 15, monotherapy, geometric mean",,Cmin,202 nM
CCOC(=O)N1C[C@@H](c2ccc(C(C)(C)C)cc2)N[C@@H](c2ccc(F)c(C#N)c2)C1,"shake-flask, LC-HRMS",aqueous buffer,"16 h, pH 6.8",,solubility,< 4 µM
Cn1cc(Nc2nccc(-c3ccc4c(c3)CN(C3COC3)CC[C@H]4NC(=O)c3cn(C(C)(C)C)nn3)n2)cn1,,"human, whole blood","150 mg twice daily, day 14",relative to: pre-dose baseline,monocyte count change,-12.4%
CNCCOC12CC3(C)CC(C)(CC(Cn4ncc(-c5ccc(N6CCc7cccc(C(=O)Nc8nc9ccccc9s8)c7C6)nc5C(=O)O)c4C)(C3)C1)C2,,"beagle dog, male, anaesthetised","intravenous bolus, 0.03 mg/kg, 75 min",relative to: baseline,QRS duration change,-2 ms
Cc1cc(NC2CCN(C(=O)OC3CCN(C(=O)/C=C/CN(C)C)C3)CC2)n2ncc(C(C)C)c2n1 (stereo not shown),"Phase I dose escalation CTCAE v4.0, refers to: back pain",patients with advanced solid tumours,"dose not given, TIW dosing any grade",,patients with adverse event,0%
CCOCc1nc(O)c(-c2nnc(Cc3ccc(Cl)cn3)o2)c(O)c1-c1c(OC)cccc1OC,,"anaesthetised rat, plasma","intravenous infusion, 10 µg/kg/min, 5 min",,plasma concentration,855 ± 54 nM
COc1ccc([C@@H]2COC[C@H](c3cccc(Br)c3)N2)cc1,"shake-flask, LC-HRMS",aqueous buffer,"16 h, pH 6.8",,solubility,< 4 µM
O=c1[nH]c(=O)n([C@@H]2O[C@H](CO)[C@@H](O)[C@@H]2F)cc1CCCCC[18F],,"nude mice, RG2 tumour, skin","intravenous, dose not given, 2 h",,biodistribution,0.07 ± 0.03 %ID/g
CCOC(=O)N1C[C@@H](c2ccc(C#N)cc2)N[C@@H](c2ccc(N3CCCC3)cc2)C1,"shake-flask, LC-HRMS",aqueous buffer,"16 h, pH 6.8",,solubility,< 4 µM
COc1cc2nccc(Oc3ccc(NC(=O)c4cc5c(n(-c6ccccc6)c4=O)CCCC5=O)nc3)c2cc1OC,,patients with relapsed/refractory AML,"oral, 3 mg once daily",,drug-related TEAEs leading to discontinuation,0%
CCOC(=O)N1C[C@@H](c2ccc(O)cc2)N[C@@H](C2CCC2)C1,"shake-flask, LC-HRMS",aqueous buffer,"16 h, pH 6.8",,solubility,> 750 µM
Cc1ccc(OC2CCN(c3c(C#N)cnc4ccc(F)cc34)CC2)cn1,,"Sprague-Dawley rat, brain and plasma","intravenous, 0.2 mg/kg, cassette, 0.25 h",,"Kp,uu brain to plasma",2.4
O=C1NCCc2nc(OCc3cccc(F)c3)ccc21,refers to: Lacrimation,"Sprague-Dawley rat, male","oral, 100 mg/kg, 1 h, score 0 none to 2 full",direction not given,Irwin test score,0
CCn1ncc2c1-c1cnc(N)c(c1)O[C@H](C)c1cc(F)ccc1-c1nn(C)nc1C2,,"female athymic nude mice, sample B PDX","oral, 5 mg/kg twice daily for 21 days, 12 h",,unbound plasma trough concentration,69 ± 10 nM
O=C(O)c1cccc(C(=O)O)c1,,Bet/PG deep eutectic solvent,303.0 K,,apparent dissolution enthalpy,15.3 kcal/mol
Cn1cc([C@@H]2COC[C@H](c3ccc(C(F)(F)F)cc3)N2)cn1,"shake-flask, LC-HRMS",aqueous buffer,"16 h, pH 6.8",,solubility,> 750 µM
NC1(C(=O)N[C@@H](CCO)c2ccc(Cl)cc2)CCN(c2nc[nH]c3nccc2-3)CC1,,metastatic CRPC patients,"320 mg b.i.d., any grade, treatment-related, added: enzalutamide 160 mg daily",,incidence of Nausea,66.7%
OC[C@H]1O[C@@H](c2ccc(Cl)c(Cc3ccc(O[C@H]4CCOC4)cc3)c2)[C@H](O)[C@@H](O)[C@@H]1O,,"Japanese type 1 diabetes patients, blood","25 mg, day 28",relative to: baseline,change in Phosphate,0 mg/dL
[H]/N=C(/N)c1ccc(NCc2nc3cc(C(=O)N(CCC(=O)O)c4ccccn4)ccc3n2C)cc1,,"healthy human, plasma","oral, dose not given, geometric mean, dabigatran etexilate dosed, added: vepdegestrant 200 mg",relative to: with over without vepdegestrant,AUC24 ratio,209%
COc1ccc2c(c1)CN(C(=O)CCN1CCC(Cc3ccccc3)CC1)CC[S@@+]2[O-],telemetry,conscious male beagle dogs,"intravenous, 8 mg/kg, 0.5 h",,QRS duration,33 ± 10 ms
CC(C)[C@@H](CS(=O)(=O)C(C)C)N1C(=O)[C@@](C)(CC(=O)O)C[C@H](c2cccc(Cl)c2)[C@H]1c1ccc(Cl)cc1,,"FVB mouse, wild type, plasma","intravenous, 20 mg/kg",,AUC(0-inf),24500 ± 1470 ng·h/mL
CCCCC/C=C\C/C=C\CCCCCCCC(=O)O.Cc1cc(/C=C/C#N)cc(C)c1Nc1ccnc(Nc2ccc(C#N)cc2)n1,,water,,,equilibrium solubility,0.2 ± 0.27 µg/mL
CN(CC#N)C(=O)C[C@H](Nc1nc2ccccc2[nH]1)c1cccc(C(F)(F)F)c1,,human,"intravenous infusion, 2 mg/kg, 1 mg/mL formulation",,apparent volume of distribution,74.8 ± 12.4 L
CCOC(=O)N1C[C@@H](c2ccc(C(F)(F)F)cc2)N[C@@H](c2ccc(F)c(C#N)c2)C1,"shake-flask, LC-HRMS",aqueous buffer,"16 h, pH 6.8",,solubility,< 4 µM
CC[C@H]1CC[C@H](c2ccc(-c3ccc(F)c(F)c3)cc2)CC1,,"rat, placenta","1000 ng/mL in perfusate, middle dose, mixture of 21 LCMs",,placental accumulation,12.1 ± 13.4 ng/g
O=c1[nH]c(=O)n([C@H]2C[C@H](O)[C@@H](CO)O2)cc1CCC[18F],,"male CD-1 nu/nu mice, RG2 tumour, lung","intravenous, dose not given, 2 h",,biodistribution,0.31 ± 0.1 %ID/g
C[C@@H](N)c1cc(Cl)ccc1Cn1c(=S)[nH]c(=O)c2[nH]ccc21,,human matched controls,"oral, 2.5 mg single dose",,subjects with severe adverse events,0%
N[C@@H]1c2ccccc2OC12CCN(c1cnc3c(N4CCCc5ncccc54)n[nH]c3n1)CC2,,"advanced metastatic solid tumour patients, plasma","oral, 60 mg once daily, cycle 1 day 15, geometric mean",,AUC(0-tau),7340 ng·h/mL
CCN1CCN(Cc2ccc(NC(=O)c3ccc(C)c(NC(=O)c4cncc(-c5cccs5)c4)c3)cc2C(F)(F)F)CC1,LC-MS/MS,"C57BL/6 mouse, plasma","intraperitoneal, 15 mg/kg single dose, 1 h",,mean plasma concentration,582 ng/mL
Cc1cc(-c2cn[nH]c2-c2cccc(OCc3cccc(C#N)c3)c2)cc(C)n1,,C57BL/6 mouse,"intraperitoneal, 200 mg/kg single dose",,tolerability,not toxic
CC[C@H](Nc1ncnc2[nH]cnc12)c1oc2ccccc2c(=O)c1-c1cccc(F)c1,,"human patients, plasma","oral, 400 mg twice daily, added: romidepsin 12 mg/m2",,elimination rate constant,9.78e-05 ± 1.02e-05 s⁻¹
CCCC1CCC(c2ccc(OCC)c(F)c2F)CC1 (stereo not shown),,"rat, placenta","5000 ng/mL in perfusate, high dose, mixture of 21 LCMs",,placental accumulation,454 ± 687 ng/g
COc1ccc([C@@H](O)c2cc(-c3ncnc4cc(N5CCOCC5)ccc34)c(F)cc2Cl)nn1,,locally advanced rectal cancer,"oral, 250 mg, added: capecitabine and radiotherapy",,rectal haemorrhage TEAE,50%
C=CCNc1nc(C)c(-c2ccnc(Nc3cccc([N+](=O)[O-])c3)n2)s1,,aqueous buffer,pH 7.4,,solubility,< 1.32 µg/mL
CNC(=O)c1ccc(-c2cnc3ncc(Cc4ccc5ncccc5c4)n3n2)cc1F,"CTCAE v4.0, any causality",human cancer patients,"oral, 600 mg twice daily, expansion cohort at RP2D",,decreased appetite incidence (all grades),18%
CC1(C)OC[C@H](C2CCCCC2)N[C@@H]1c1ccc(-c2ccccc2)cc1,"shake-flask, LC-HRMS",aqueous buffer,"16 h, pH 6.8",,solubility,< 4 µM
COc1cc(Nc2ncc3c(n2)-c2ccc(Cl)cc2C(c2c(F)cccc2OC)=NC3)ccc1C(=O)O,"refers to: back pain, grade 2","cancer patients, phase 1/2","oral, dose not given, added: pembrolizumab",,patients with adverse event,4%
CCOC(=O)N1C[C@@H]([C@H]2CCOC2)N[C@@H](C(C)(C)C)C1,"shake-flask, LC-HRMS",aqueous buffer,"16 h, pH 6.8",,solubility,> 750 µM
COc1cccc(OC)c1-c1cc(C(=O)NC2(C(=O)O)C3CC4CC(C3)CC2C4)nn1-c1ccc(C(=O)N(C)CCCN(C)CCCN(C)C(=O)CN2CCN(CC(=O)[O-])CCN(CC(=O)[O-])CCN(CC(=O)[O-])CC2)cc1C(C)C.[177Lu+3] (stereo not shown),,"mouse, HT-29 xenograft","72 h post injection, biodistribution",relative to: tumour over bone uptake,tumour-to-bone ratio,27.4
Nc1ncn([C@H]2C[C@H](O)[C@@H](CO)O2)c(=O)n1,,processed mouse plasma,"1.2 ng/mL, 12 h, 4 °C, autosampler stability",,mean deviation from nominal,1.69%
Cc1ccc([C@@H]2O[C@H](CO)[C@@H](O)[C@H](O)[C@H]2O)cc1Cc1ccc(-c2ccc(F)cc2)s1,,Japanese type 2 diabetes patients,"25 mg, day 6, 24 h urine collection",relative to: baseline,urinary sodium excretion change,-25.6 mEq
O=S(=O)(NCCSc1ccccn1)c1ccc(Br)cc1,,aqueous buffer,pH 7.4,,solubility,< 4 µg/mL
CN(C)C(=N)N=C(N)N,refers to: general and administration site disorders,healthy men,"oral, dose not given, 8 days, treatment-emergent, crossover trial",,subjects with adverse event,0%
Cc1c(-c2ccc(N3CCc4cccc(C(=O)Nc5nc6ccccc6s5)c4C3)nc2C(=O)O)cnn1CC12CC3(C)CC(C)(C1)CC(OCCNCC[C@H](O)CO)(C3)C2,,"beagle dog, male, anaesthetised","intravenous infusion, 0.3 mg/kg/min, 60 min",relative to: vehicle,QRS duration change,1 ms
C[C@H](CCC(=O)O)[C@H]1CC[C@H]2[C@@H]3[C@H](O)C[C@@H]4C[C@H](O)CC[C@]4(C)[C@H]3C[C@H](O)[C@]12C,,"human, plasma",control,,Cmin,21.3 ± 5.4 nM
O=c1[nH]c(=O)n([C@@H]2O[C@H](CO)[C@@H](O)[C@@H]2F)cc1CCC[18F],,"nude mice, RG2 tumour, brain","intravenous, dose not given, 2 h",,biodistribution,0.02 ± 0.01 %ID/g
CC(=O)N(C)[C@H]1CCN(C(=O)c2cnc3c(c2)C[C@](C)(c2ccc(F)cc2)N3)C1,,human,dose not given,,aspartate aminotransferase,497 U/L
COc1cccc(OC)c1NS(=O)(=O)c1ccc(N/C=C2\C(=O)Nc3ccc4ncsc4c32)cc1,,aqueous buffer,pH 7.4,,solubility,< 2.72 µg/mL
CCc1cc(C(=O)NC)c2nccc(N3CCc4c(cc(Cn5ccnc5)cc4-c4cn(C)nc4C(F)(F)F)C3=O)c2c1,,Sprague Dawley rats,"oral, 100 mg/kg once daily, 7 days",relative to: vehicle,serum ALP change,-4.3%
CNCc1ccc(-c2[nH]c3cc(F)cc4c3c2CCNC4=O)cc1,,human patients,"oral, 600 mg twice daily, grade 5",,vomiting incidence,0%
Cc1ccc(Sc2ccccc2N2CCNCC2)c(C)c1,refers to: Somnolence,healthy adult women,"oral, 5 mg daily, 12 days",,participants with TEAE,0%
CNCc1ccc(-c2cc(-c3nc(-c4ccc(S(=O)(=O)C(C)C)cc4)cnc3N)on2)cc1,,female BALB/c mice,"single dose, dose not given, 48 h, added: total body irradiation 6 Gy",,neutrophils in white blood cells,48.2%
CCN1/C(=C/C(C)=O)Sc2ccc(F)cc21,,cynomolgus monkey,"oral, 30 mg/kg, 2 h post-dose",,systolic blood pressure,110 ± 6 mmHg
Cc1cc([C@H]2C[C@H]3[C@@H](CF)SC(N)=N[C@@]3(c3ccc(F)cc3F)CO2)on1,,"129/SVE wild-type mouse, male","subcutaneous, 30 mg/kg, 5 h",,CSF concentration,149 nM
CCO[C@H]1CCN(Cc2c(OC)cc(C)c3[nH]ccc23)[C@H](c2ccc(C(=O)O)cc2)C1,,"healthy human controls, plasma","oral, 200 mg single dose, hepatic impairment phase I study",,unbound Cmax (median),692 ng/mL
CSc1ccccc1C(=O)NCCn1cc(C(=O)NCc2cccc(C)n2)c(=O)c2cc3c(cc21)OC(F)(F)O3,,"Sprague-Dawley rat, male, plasma","intravenous, 5 mg/kg of parent drug",,MRT(0-inf),46.2 ± 19.8 min
CCc1cc2c(cc1N1CCC(N3CCOCC3)CC1)C(C)(C)c1[nH]c3cc(C#N)ccc3c1C2=O,,"ALK inhibitor-naive patients, body weight 60-90 kg","oral, 600 mg twice daily, week 6",,average plasma concentration,1300 nM
O=C(Nc1nc2cccc(-c3ccc(CN4CCS(=O)(=O)CC4)cc3)n2n1)C1CC1,refers to: nervous system disorders,human rheumatoid arthritis patients,"oral, 200 mg once daily, 4 weeks, regardless of relatedness",,treatment-emergent adverse events,33.3%

# For quick reference, copied from above:
SMILES,test,system,conditions,how to read,quantity,value
Cc1ccc(OC2CCN(c3c(C#N)cnc4ccc(F)cc34)CC2)cn1,,"Sprague-Dawley rat, brain and plasma","intravenous, 0.2 mg/kg, cassette, 0.25 h",,"Kp,uu brain to plasma",2.4
CC[C@H]1CC[C@H](c2ccc(-c3ccc(F)c(F)c3)cc2)CC1,,"rat, placenta","1000 ng/mL in perfusate, middle dose, mixture of 21 LCMs",,placental accumulation,12.1 ± 13.4 ng/g
CNCc1ccc(-c2[nH]c3cc(F)cc4c3c2CCNC4=O)cc1,,human patients,"oral, 600 mg twice daily, grade 5",,vomiting incidence,0%
Cc1cc(-c2cn[nH]c2-c2cccc(OCc3cccc(C#N)c3)c2)cc(C)n1,,C57BL/6 mouse,"intraperitoneal, 200 mg/kg single dose",,tolerability,not toxic
